Experimental data gathered from unrelated publications.
Every numbered part comes from another study and shows a few of its results, in no order. “And” joins repeats or separate records; there may be more than shown.
Chain of UniProt P35372 (whole entry, looked up): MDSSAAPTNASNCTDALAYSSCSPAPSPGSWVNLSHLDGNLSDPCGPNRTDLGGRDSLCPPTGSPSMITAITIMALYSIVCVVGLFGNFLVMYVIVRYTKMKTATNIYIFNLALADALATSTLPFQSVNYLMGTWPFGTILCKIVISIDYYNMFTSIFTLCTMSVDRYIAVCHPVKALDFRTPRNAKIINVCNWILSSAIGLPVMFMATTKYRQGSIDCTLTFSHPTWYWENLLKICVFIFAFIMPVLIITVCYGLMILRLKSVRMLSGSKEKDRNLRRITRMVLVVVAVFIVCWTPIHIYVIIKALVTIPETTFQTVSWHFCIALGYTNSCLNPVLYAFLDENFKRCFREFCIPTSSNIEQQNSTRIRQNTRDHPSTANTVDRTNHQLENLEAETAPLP
Chain of UniProt P33261 (whole entry, looked up): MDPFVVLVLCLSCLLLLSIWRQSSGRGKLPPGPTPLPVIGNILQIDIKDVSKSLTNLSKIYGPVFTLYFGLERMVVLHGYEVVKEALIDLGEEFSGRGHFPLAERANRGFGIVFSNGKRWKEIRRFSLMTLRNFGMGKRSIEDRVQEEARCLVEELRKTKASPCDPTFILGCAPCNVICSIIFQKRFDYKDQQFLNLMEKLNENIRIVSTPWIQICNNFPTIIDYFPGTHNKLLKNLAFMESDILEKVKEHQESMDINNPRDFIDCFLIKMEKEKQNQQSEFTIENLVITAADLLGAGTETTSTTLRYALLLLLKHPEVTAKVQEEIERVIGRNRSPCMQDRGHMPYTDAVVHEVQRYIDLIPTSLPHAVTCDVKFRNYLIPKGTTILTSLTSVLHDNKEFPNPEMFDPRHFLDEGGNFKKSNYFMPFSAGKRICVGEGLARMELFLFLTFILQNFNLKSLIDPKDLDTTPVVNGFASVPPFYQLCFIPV
Chain of UniProt P10632 (whole entry, looked up): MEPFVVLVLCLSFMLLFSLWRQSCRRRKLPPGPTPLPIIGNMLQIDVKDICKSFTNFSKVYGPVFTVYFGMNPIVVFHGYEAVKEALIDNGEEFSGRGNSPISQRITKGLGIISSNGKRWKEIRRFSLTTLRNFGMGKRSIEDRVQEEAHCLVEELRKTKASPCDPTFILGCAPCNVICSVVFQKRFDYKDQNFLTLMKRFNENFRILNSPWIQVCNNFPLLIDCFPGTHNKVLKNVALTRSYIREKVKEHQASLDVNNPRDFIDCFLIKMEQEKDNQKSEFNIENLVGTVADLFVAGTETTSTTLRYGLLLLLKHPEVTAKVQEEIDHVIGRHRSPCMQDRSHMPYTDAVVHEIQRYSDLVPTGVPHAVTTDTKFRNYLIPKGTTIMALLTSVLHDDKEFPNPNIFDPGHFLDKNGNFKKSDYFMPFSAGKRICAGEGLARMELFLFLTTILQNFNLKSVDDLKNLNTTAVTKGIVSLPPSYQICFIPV
Chain of UniProt P10635 (whole entry, looked up): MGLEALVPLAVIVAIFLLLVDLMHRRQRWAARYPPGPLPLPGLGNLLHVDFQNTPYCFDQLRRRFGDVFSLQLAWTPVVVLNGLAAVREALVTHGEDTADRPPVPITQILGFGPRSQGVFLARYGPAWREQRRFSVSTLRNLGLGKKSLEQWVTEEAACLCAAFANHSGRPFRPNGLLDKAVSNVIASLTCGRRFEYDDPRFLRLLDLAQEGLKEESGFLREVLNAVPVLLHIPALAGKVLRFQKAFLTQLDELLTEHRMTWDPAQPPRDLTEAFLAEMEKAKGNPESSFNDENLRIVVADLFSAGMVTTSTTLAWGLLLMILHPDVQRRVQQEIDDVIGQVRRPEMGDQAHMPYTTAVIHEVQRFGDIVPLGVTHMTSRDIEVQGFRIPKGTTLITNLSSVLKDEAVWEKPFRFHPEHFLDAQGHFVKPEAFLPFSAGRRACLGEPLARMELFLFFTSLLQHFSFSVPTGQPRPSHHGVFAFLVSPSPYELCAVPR
Chain of UniProt P05177 (whole entry, looked up): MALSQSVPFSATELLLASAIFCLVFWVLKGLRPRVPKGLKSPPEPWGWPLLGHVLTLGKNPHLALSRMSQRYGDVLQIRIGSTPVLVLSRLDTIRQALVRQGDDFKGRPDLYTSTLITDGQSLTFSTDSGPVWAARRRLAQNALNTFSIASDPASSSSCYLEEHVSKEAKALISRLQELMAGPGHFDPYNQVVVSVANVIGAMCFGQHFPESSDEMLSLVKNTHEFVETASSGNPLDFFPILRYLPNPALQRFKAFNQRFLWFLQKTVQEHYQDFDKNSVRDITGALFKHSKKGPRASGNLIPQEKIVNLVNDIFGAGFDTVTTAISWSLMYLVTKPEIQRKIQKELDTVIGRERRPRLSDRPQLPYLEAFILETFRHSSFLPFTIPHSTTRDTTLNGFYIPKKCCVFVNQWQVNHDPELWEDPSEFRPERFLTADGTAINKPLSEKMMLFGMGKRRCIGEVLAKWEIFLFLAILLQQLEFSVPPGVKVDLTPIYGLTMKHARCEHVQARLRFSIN

Study 1
Structure (SMILES): C[C@@H]1CN(c2ccc(-c3cc(C(=O)NCCOCCOCCOCCOCCNC(=O)Cn4cc(-c5[nH]cc(C(=O)N[C@@H](CC(N)=O)c6ccc(F)c(Cl)c6)c5-c5ccc(Cl)cc5F)cn4)ccc3F)cc2NC(=O)c2c[nH]c(=O)cc2C(F)(F)F)C[C@H](C)N1C
Effect on: thermal unfolding
Method: differential scanning fluorimetry
Tested at: 5.5 µM
Direction: higher = more unfolded
DCAF1: DDB1- and CUL4-associated factor 1 (DCAF1, Homo sapiens, UniProt Q9Y4B6)
Chain of UniProt Q9Y4B6 (whole entry, looked up): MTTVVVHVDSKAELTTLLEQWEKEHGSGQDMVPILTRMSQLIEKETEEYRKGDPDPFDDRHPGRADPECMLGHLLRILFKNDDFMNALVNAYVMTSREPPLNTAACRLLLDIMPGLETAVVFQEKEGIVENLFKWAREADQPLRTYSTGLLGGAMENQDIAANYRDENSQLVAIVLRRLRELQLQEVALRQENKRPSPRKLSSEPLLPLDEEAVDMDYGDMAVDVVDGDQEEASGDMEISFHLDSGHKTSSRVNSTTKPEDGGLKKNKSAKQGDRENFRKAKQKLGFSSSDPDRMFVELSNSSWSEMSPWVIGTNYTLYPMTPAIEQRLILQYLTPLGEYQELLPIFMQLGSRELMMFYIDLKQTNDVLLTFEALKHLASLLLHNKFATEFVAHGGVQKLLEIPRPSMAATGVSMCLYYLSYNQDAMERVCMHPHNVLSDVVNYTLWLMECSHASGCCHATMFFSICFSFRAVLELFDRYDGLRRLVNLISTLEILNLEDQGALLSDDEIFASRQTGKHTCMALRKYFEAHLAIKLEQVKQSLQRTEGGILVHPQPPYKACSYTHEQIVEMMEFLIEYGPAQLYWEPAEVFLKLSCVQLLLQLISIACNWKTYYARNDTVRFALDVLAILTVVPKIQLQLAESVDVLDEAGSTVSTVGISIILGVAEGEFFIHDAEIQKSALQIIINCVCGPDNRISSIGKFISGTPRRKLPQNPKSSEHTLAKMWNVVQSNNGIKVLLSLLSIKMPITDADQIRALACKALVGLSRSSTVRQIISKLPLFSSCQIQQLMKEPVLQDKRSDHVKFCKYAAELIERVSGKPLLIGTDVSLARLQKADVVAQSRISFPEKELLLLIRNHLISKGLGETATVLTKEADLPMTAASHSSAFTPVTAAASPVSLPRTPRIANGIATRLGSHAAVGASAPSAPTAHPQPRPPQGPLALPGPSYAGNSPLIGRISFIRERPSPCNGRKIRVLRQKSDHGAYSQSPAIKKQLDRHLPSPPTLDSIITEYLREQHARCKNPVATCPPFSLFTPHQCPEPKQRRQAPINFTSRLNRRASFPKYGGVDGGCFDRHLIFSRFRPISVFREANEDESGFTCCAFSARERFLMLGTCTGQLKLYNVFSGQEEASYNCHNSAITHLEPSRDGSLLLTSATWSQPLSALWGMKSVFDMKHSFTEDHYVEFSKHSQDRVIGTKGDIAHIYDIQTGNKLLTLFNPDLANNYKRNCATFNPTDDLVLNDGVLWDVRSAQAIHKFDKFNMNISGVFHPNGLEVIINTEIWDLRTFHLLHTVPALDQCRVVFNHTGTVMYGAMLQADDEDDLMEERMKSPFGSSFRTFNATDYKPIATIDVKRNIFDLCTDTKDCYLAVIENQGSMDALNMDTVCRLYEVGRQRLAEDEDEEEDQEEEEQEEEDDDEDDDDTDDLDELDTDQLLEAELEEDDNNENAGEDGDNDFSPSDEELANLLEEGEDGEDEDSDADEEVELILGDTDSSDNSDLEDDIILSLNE
target	conditions	SYPRO Orange fluorescence
DCAF1	86.81 °C	38000 a.u.
DCAF1	65.41 °C	56300 a.u.
DCAF1	91.41 °C	33800 a.u.
DCAF1	31.4 °C	8270 a.u.
WDR5 (Homo sapiens, UniProt P61964)	88.41 °C	43600 a.u.
DCAF1	76.21 °C	48000 a.u.
DCAF1	41.4 °C	10900 a.u.
DCAF1	50.8 °C	15100 a.u.

Study 2
SMILES: Cn1cc(-c2cccc(CN3CCC4(CC3)COc3c4ccc4c3CN([C@H]3CCC(=O)NC3=O)C4=O)c2)cn1
Effect on: enzyme activity
Medium: human liver microsomes
Reference: negative control
CYP3A4: Cytochrome P450 3A4 (CYP3A4, Homo sapiens, UniProt P08684)
Chain of UniProt P08684 (whole entry, looked up): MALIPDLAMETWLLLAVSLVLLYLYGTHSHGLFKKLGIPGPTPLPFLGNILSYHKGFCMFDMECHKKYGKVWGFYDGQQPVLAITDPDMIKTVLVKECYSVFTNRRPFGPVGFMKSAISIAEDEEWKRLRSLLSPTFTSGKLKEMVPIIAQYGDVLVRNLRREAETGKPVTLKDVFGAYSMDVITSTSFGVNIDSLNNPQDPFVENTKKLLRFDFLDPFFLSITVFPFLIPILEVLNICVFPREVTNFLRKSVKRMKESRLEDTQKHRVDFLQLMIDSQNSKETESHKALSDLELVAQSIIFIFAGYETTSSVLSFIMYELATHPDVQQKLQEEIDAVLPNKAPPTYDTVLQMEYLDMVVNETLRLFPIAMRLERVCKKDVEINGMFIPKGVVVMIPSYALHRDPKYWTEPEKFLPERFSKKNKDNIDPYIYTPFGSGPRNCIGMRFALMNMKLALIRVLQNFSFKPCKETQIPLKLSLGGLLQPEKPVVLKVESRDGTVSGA
CYP2B6: Cytochrome P450 2B6 (CYP2B6, Homo sapiens, UniProt P20813)
Chain of UniProt P20813 (whole entry, looked up): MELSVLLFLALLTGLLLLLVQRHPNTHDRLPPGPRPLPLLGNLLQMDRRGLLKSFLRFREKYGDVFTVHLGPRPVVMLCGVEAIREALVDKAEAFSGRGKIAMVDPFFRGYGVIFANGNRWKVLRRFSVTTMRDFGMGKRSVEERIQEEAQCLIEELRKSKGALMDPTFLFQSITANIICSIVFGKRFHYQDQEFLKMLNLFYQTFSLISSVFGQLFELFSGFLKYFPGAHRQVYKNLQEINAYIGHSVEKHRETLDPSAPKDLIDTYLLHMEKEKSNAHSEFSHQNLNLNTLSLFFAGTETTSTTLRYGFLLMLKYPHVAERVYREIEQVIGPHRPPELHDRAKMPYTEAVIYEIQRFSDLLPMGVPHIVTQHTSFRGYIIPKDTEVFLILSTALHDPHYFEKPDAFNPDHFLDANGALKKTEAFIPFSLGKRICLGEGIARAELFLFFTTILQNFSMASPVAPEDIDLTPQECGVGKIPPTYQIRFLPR
target	conditions	remaining activity
CYP2C19 (Homo sapiens, UniProt P33261)	0.0137 µM	105%
Cytochrome P450 1A2 (CYP1A2, Homo sapiens, UniProt P05177)	0.12 µM	84.6%
CYP3A4	10.00 µM, added: midazolam substrate	90.1%
Cytochrome P450 2D6 (CYP2D6, Homo sapiens, UniProt P10635)	3.33 µM	98.2%
Cytochrome P450 2C8 (CYP2C8, Homo sapiens, UniProt P10632)	1.11 µM	108%
CYP2B6	0.12 µM	86.2%
CYP3A4	3.33 µM, added: midazolam substrate	84%
CYP3A4	0.04 µM, added: testosterone substrate	99.1%
CYP2B6	3.33 µM	85%
CYP3A4	0.0137 µM, added: midazolam substrate	99%

Single results of other studies
Structure (SMILES)	target or system	test	test system	conditions	measurement	result
CCCCC[C@@H](O)CC(=O)N[C@@H]1C(=O)N[C@H](CCCNC(=N)N)C(=O)N[C@@H](CO)C(=O)NCC(=O)N(C)[C@H](Cc2ccccc2)C(=O)N[C@@H](CC(C)C)C(=O)N[C@H](CCCNC(=N)N)C(=O)N[C@@H](CCC(=O)O)C(=O)N[C@H](CCC(N)=O)C(=O)N[C@H](Cc2c[nH]c3ccccc23)C(=O)N[C@@H]([C@@H](C)CC)C(=O)N[C@@H]([C@@H](C)O)C(=O)O[C@@H]1C	Staphylococcus aureus		USA300	2 x MIC, 300 min	viable cells	200 CFU/mL and 100 CFU/mL
N=C(N)NCCCCCCN1CCC23c4c5ccc(O)c4OC2c2nc4ccccc4cc2CC3(O)C1C5 (centres unmarked)	OPRM1 (Homo sapiens, UniProt P35372)	competitor, radioligand binding		10 nM	normalised specific binding	133% and 106% and 88.8%

A few entries again (study 1):
target	conditions	SYPRO Orange fluorescence
DCAF1	91.41 °C	33800 a.u.
